{"data": "Measurements from different studies", "gyrB with GyrA": "DNA gyrase subunit B, with GyrA (gyrB, Mycobacterium tuberculosis, UniProt P9WG45)", "note": "Compare with care: the assays were run in different laboratories. ± gives the spread as reported.", "sequence of UniProt P9WG45 (whole entry, looked up)": "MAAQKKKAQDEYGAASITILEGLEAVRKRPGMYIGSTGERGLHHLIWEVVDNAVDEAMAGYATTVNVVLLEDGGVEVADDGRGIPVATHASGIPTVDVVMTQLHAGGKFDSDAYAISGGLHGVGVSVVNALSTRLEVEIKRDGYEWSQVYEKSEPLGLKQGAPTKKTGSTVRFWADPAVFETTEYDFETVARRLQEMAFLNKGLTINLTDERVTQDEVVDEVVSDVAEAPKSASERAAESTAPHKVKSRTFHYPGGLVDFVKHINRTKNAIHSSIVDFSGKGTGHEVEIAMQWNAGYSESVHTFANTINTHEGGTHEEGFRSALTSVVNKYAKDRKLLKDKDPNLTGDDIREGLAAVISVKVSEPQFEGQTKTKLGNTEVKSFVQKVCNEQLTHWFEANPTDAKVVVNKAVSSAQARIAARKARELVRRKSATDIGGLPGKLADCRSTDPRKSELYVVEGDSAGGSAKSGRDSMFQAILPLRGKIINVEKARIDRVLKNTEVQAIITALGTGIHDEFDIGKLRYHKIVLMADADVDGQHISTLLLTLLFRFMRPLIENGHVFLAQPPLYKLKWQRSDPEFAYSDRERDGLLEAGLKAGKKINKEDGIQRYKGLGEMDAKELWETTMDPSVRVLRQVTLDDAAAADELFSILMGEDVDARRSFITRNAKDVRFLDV", "sequence of UniProt Q7NDN8 (whole entry, looked up)": "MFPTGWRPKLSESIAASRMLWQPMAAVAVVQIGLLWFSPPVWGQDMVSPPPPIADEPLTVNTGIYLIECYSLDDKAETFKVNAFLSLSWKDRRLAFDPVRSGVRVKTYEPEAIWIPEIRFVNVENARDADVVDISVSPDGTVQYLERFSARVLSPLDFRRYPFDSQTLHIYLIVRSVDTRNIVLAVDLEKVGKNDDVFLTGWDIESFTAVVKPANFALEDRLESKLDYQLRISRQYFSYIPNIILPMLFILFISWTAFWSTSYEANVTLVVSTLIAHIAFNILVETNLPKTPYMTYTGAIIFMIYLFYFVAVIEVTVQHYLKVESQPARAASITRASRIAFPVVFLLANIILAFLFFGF", "sequence of UniProt P46098 (whole entry, looked up)": "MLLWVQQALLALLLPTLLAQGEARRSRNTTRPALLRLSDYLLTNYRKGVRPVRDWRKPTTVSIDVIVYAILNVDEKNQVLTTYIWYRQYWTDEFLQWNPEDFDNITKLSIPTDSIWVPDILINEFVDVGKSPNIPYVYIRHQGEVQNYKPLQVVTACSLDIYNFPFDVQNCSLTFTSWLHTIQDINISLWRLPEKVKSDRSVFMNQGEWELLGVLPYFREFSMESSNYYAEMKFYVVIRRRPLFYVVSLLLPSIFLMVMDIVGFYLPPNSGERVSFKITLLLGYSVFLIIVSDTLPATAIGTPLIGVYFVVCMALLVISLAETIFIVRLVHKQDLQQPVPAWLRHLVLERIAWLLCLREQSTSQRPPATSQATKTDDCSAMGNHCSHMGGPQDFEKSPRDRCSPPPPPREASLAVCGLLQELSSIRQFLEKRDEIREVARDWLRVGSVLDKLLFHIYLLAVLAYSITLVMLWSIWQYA", "sequence of UniProt P30926 (whole entry, looked up)": "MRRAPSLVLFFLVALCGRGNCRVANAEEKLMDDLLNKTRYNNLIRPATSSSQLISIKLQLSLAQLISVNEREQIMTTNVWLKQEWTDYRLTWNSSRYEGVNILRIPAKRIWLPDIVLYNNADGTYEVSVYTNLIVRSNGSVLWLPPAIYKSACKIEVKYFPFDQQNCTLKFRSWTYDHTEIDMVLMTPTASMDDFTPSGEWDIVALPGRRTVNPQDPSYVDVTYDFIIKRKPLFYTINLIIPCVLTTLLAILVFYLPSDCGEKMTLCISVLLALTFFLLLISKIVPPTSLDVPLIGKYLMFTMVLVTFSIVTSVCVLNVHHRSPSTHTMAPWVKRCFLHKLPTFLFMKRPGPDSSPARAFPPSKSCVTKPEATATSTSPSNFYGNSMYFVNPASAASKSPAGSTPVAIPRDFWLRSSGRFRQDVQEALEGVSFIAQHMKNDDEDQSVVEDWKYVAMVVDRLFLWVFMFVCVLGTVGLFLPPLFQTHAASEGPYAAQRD", "sequence of UniProt Q96JH7 (whole entry, looked up)": "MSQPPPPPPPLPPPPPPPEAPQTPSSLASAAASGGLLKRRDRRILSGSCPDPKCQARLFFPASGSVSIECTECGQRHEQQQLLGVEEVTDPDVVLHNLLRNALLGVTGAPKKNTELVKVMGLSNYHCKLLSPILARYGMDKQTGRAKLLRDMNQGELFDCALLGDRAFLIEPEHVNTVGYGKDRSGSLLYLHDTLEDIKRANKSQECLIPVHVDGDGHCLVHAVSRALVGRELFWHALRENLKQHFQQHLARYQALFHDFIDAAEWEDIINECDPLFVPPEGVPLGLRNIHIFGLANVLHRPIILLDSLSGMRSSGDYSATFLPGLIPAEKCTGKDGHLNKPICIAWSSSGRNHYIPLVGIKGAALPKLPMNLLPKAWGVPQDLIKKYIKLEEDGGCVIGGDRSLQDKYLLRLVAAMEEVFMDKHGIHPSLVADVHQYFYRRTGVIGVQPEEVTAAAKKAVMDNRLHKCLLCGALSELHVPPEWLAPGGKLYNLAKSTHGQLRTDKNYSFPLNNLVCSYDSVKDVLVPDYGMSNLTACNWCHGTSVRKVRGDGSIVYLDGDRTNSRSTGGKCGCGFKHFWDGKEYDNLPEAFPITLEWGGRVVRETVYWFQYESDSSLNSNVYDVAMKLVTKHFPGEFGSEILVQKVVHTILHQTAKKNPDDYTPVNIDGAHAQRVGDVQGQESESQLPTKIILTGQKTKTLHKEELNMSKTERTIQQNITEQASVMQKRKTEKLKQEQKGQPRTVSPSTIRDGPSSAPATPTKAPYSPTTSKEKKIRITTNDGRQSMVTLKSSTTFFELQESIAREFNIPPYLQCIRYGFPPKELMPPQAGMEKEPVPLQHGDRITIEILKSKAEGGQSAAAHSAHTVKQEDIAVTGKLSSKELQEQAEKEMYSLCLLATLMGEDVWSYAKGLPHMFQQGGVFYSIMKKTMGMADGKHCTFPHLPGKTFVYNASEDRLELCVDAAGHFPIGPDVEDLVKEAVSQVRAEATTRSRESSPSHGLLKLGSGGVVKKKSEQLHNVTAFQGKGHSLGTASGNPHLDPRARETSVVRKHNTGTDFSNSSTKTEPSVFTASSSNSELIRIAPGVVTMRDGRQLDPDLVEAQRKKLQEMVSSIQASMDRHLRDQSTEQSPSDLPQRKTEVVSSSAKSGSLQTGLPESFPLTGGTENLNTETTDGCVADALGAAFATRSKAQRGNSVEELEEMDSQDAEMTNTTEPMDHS", "sequence of UniProt P29371 (whole entry, looked up)": "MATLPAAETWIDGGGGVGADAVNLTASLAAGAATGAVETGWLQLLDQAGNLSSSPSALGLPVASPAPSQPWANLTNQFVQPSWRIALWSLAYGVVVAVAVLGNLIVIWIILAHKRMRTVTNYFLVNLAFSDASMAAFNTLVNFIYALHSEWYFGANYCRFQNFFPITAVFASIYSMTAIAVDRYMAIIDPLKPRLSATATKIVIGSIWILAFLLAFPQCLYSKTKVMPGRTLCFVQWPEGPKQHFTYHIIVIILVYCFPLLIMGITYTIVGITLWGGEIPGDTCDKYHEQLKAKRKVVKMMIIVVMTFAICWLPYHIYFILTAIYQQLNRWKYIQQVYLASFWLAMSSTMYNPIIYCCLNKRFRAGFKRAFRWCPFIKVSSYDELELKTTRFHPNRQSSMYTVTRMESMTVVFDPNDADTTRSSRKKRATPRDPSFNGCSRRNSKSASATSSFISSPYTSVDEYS", "sequence of UniProt P32297 (whole entry, looked up)": "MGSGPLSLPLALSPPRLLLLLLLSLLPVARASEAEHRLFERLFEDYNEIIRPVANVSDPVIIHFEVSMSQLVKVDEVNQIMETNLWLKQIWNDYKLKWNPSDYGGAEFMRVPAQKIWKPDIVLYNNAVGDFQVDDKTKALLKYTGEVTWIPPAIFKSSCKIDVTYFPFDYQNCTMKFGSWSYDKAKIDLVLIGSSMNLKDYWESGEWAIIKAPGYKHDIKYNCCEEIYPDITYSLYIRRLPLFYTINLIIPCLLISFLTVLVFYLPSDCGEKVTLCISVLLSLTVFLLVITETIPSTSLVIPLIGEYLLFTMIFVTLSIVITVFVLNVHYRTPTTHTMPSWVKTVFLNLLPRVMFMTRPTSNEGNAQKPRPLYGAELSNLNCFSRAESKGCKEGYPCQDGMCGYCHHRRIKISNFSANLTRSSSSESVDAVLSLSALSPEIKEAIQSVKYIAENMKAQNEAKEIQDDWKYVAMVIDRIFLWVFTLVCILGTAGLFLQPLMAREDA", "sequence of UniProt P23975 (whole entry, looked up)": "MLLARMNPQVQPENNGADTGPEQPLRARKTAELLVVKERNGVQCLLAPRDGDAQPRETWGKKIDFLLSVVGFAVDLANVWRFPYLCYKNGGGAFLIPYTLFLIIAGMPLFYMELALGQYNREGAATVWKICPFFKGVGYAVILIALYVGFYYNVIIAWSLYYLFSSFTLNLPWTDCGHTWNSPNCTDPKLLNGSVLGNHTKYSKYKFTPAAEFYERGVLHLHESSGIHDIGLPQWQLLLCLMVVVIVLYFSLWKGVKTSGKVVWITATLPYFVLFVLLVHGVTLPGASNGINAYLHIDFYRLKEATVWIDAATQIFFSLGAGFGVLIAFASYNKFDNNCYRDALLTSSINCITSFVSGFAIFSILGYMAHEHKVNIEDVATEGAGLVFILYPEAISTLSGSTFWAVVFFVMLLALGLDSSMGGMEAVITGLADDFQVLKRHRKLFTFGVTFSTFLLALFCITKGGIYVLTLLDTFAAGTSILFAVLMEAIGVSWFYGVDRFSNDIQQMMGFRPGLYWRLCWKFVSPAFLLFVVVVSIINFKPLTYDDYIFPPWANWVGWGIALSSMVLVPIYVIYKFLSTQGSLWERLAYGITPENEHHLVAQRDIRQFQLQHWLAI"}
{"Compound": "O=c1[nH]c2ccccc2n1C1CCN(CCCC(c2ccc(F)cc2)c2ccc(F)cc2)CC1", "tested on": "VCPIP1 (Homo sapiens, UniProt Q96JH7)", "test": "enzyme activity, MALDI-TOF", "conditions": "35 min preincubation, 30 °C", "quantity": "IC50", "value": "1.33 µM"}
{"Compound": "COC(=O)CCc1c(C(=O)N2CCOCC2)[nH]c2ccc(Cl)cc12", "tested on": "gyrB with GyrA", "test": "inhibitor", "quantity": "IC50", "value": "> 500 µM"}
{"Compound": "OCCCCO", "tested on": "Cytochrome P450 2E1 (Cyp2e1, Mus musculus, UniProt Q05421)", "test": "4-nitrophenol hydroxylation, inhibitor", "test system": "B6C3F1 mouse, liver microsomes", "conditions": "30 min, added: 4-nitrophenol 50 µM", "quantity": "IC50", "value": "3200 µM"}
{"Compound": "COc1cc2c(Oc3ccc4[nH]c(C)cc4c3F)ccnc2cc1OCC1(N)CC1", "test system": "paediatric recurrent refractory sarcoma", "conditions": "12 mg", "quantity": "grade 3 Rash", "value": "0%"}
{"Compound": "C[C@@]12CC[C@H](O)C[C@@H]1CC[C@H]1[C@H]2CC[C@@]2(C)C(=O)CC[C@H]12", "tested on": "HTR3A (Homo sapiens, UniProt P46098)", "test": "ion channel, blocker, FLIPR", "quantity": "IC50", "value": "6.15 µM"}
{"Compound": "COc1c(CCC[P+](c2ccccc2)(c2ccccc2)c2ccccc2)cc2c(c1OC)OCO2.[I-]", "tested on": "T47D", "test": "SRB", "quantity": "LC50", "value": "> -4 log M"}
{"Compound": "COc1ccc2c3c([nH]c2c1)C(C)=NCC3", "tested on": "Dyrk1a (Rattus norvegicus, UniProt Q63470)", "test": "inhibitor", "quantity": "IC50", "value": "4.59 ± 0.46 µM"}
{"Compound": "CC(C)C[C@H](NC(=O)OCc1ccccc1)C(=O)N[C@H](C=O)C[C@@H]1CCCNC1=O", "tested on": "Genome polyprotein, 3C-like protease (Lordsdale virus, UniProt P54634)", "quantity": "IC50", "value": "3.74 ± 0.42 µM"}
{"Compound": "O=S(=O)(c1ccc(C(F)(F)F)cc1)N1CCNCC1COc1ccc2ccccc2c1 (stereo not drawn)", "tested on": "P2X purinoceptor 4 (P2RX4, Homo sapiens, UniProt Q99571)", "test": "Ca2+ flux, antagonist", "test system": "human cells expressing P2RX4", "conditions": "racemate tested", "quantity": "IC50", "value": "> 10 µM"}
{"Compound": "CN[C@]1(c2ccccc2Cl)CCCCC1=O", "tested on": "Neuronal acetylcholine receptor; alpha3/beta4 (Homo sapiens, UniProt P30926+P32297)", "test": "channel function, antagonist, IonWorks Barracuda", "quantity": "IC50", "value": "5.8 µM"}
{"Compound": "COc1cc(Nc2ncc(F)c(Nc3ccc4c(n3)NC(=O)C(C)(C)O4)n2)cc(OC)c1OC", "tested on": "TACR3 (Homo sapiens, UniProt P29371)", "quantity": "IC50", "value": "> 10 µM"}
{"Compound": "C[C@@H](O)[C@@H](CO)NC(=O)[C@@H](CCCNC(=N)N)NC(=O)[C@@H]1CCCN1C(=O)[C@@H]1CSSC[C@H](NC(=O)[C@H](Cc2ccccc2)NC(=O)CN2CCN(CC(=O)O)CCN(CC(=O)O)CCN(CC(=O)O)CC2)C(=O)N[C@@H](Cc2ccc(O)cc2)C(=O)N[C@@H](Cc2ccccc2)C(=O)N[C@@H](CCC(N)=O)C(=O)N[C@@H](CC(N)=O)C(=O)N1 [gallium-68 labelled]", "test system": "Wistar rat, muscle", "conditions": "intravenous, 8 MBq, 60 min, group mean", "quantity": "tissue uptake", "value": "0.4 %ID/g"}
{"Compound": "O=C(CCc1c(C(=O)N2CCCCC2)[nH]c2ccc(Cl)cc12)Nc1ccc(Cl)cc1", "tested on": "gyrB with GyrA", "test": "inhibitor", "quantity": "IC50", "value": "191 µM"}
{"Compound": "O=C(c1ccc(Cl)cc1)N1CCN2C(=O)N(OC(=O)N3CCOc4ccccc43)C(=O)C2C1 (stereo not drawn)", "tested on": "Kynurenine formamidase (AFMID, Homo sapiens, UniProt Q63HM1)", "test": "enzyme activity, inhibitor, MS-based ABPP", "test system": "SW-620 conditioned medium", "conditions": "10 µM, 1 h, 37 °C", "scale": "baseline: compound over DMSO, lower = stronger inhibition", "quantity": "median ratio", "value": 1.26}
{"Compound": "C[C@H]1CN(c2n[nH]c3nc(N[C@H]4CC[C@H](NS(=O)(=O)CCC(F)(F)F)CC4)ncc23)CCO1", "tested on": "Filamin-C (FLNC, Homo sapiens, UniProt Q14315)", "test": "Kinobeads competition, refers to: FLNC", "conditions": "20 µM, unit not given", "scale": "baseline: vehicle", "quantity": "remaining binding", "value": 1.15}
{"Compound": "CNC(C)Cc1ccc2c(c1)OCO2 (stereo not drawn)", "tested on": "SLC6A2 (Homo sapiens, UniProt P23975)", "quantity": "IC50", "value": "4.9 ± 0.3 µM"}
{"Compound": "CC[C@H](C)[C@@H]1NC(=O)[C@@H]2CCCN2C(=O)[C@H](CC(C)C)NC(=O)[C@H](CC(C)C)NC(=O)CNC(=O)[C@@H](NC(=O)[C@@H](NC(=O)[C@H](CC(=O)O)NC(=O)CNC(=O)[C@@H](NC(=O)[C@H](C)NC(=O)CNC(=O)[C@H](CCCCN)NC(=O)[C@H](CC(C)C)NC(=O)[C@H](CC(C)C)NC(=O)[C@H](CCCCN)NC(=O)CNC(=O)[C@@H](NC(=O)[C@@H](N)CC(C)C)C(C)C)C(C)C)C(C)C)CSSC[C@@H](C(=O)O)NC1=O", "test": "RNA-seq, refers to: Cdh8", "test system": "mouse, traumatic brain injury model, frontal cortex and hippocampus", "conditions": "dose not given", "scale": "baseline: TBI alone", "quantity": "log2 fold change", "value": 0.687}
{"Compound": "O=C(O)CN(CCN(CC(=O)O)CC(=O)O)CC(=O)O", "tested on": "8-oxo-(d)GTP phosphatase (mutT1, Mycobacterium tuberculosis, UniProt P9WIY3)", "quantity": "IC50", "value": "3400 ± 900 µM"}
{"Compound": "O=C(CCc1c(C(=O)N2CCCC2)[nH]c2ccc(Cl)cc12)Nc1ccc(Cl)cc1", "tested on": "gyrB with GyrA", "test": "inhibitor", "quantity": "IC50", "value": "174 µM"}
{"Compound": "O=C(O)CCCO", "tested on": "Calcium/calmodulin-dependent protein kinase type II subunit alpha (Camk2a, Mus musculus, UniProt P11798)", "test": "[3H]HOCPCA binding", "test system": "mouse cortical neuron homogenate", "quantity": "IC50", "value": "2.04 µM"}
{"Compound": "COC(=O)CCc1c(C(=O)N2CCCC2)[nH]c2ccc(Cl)cc12", "tested on": "gyrB with GyrA", "test": "inhibitor", "quantity": "IC50", "value": "> 500 µM"}
{"Compound": "CC(NC(C)(C)C)C(=O)c1cccc(Cl)c1 (stereo not drawn)", "tested on": "Proton-gated ion channel (glvI, Gloeobacter violaceus, UniProt Q7NDN8)", "test": "proton-induced current, inhibitor, two-electrode voltage clamp", "test system": "Xenopus oocytes", "conditions": "holding -60 mV, proton pH50", "quantity": "IC50", "value": "14.9 µM"}
{"Compound": "O=C(CCc1c(C(=O)Nc2ccncc2)[nH]c2ccc(C(F)(F)F)cc12)Nc1ccncc1", "tested on": "gyrB with GyrA", "test": "inhibitor", "quantity": "IC50", "value": "24 µM"}
{"Compound": "CC[C@H](C)[C@H](NC(=O)[C@H](Cc1ccccc1)NC(=O)[C@H](CCC(=O)O)NC(=O)[C@H](CCCNC(=N)N)NC(=O)[C@H](C)NC(=O)[C@H](C)NC(=O)[C@H](CCC(N)=O)NC(=O)[C@H](CCC(=O)O)NC(=O)[C@H](CCC(=O)O)NC(=O)[C@H](CC(C)C)NC(=O)[C@H](Cc1ccc(O)cc1)NC(=O)[C@H](CO)NC(=O)[C@H](CO)NC(=O)[C@@H](NC(=O)[C@H](CC(=O)O)NC(=O)[C@H](CO)NC(=O)[C@@H](NC(=O)[C@H](Cc1ccccc1)NC(=O)[C@@H](NC(=O)CNC(=O)[C@H](CCC(=O)O)NC(=O)[C@H](C)NC(=O)CCc1c[nH]cn1)[C@@H](C)O)[C@@H](C)O)C(C)C)C(=O)N[C@@H](C)C(=O)N[C@@H](Cc1c[nH]c2ccccc12)C(=O)N[C@@H](CC(C)C)C(=O)N[C@H](C(=O)N[C@@H](CCCNC(=N)N)C(=O)NCC(=O)N[C@@H](CCCNC(=N)N)C(=O)N[C@@H](CCCCNC(=O)COCCOCCNC(=O)COCCOCCNC(=O)CC[C@H](NC(=O)CCCCCCCCCCCCCCCCC(=O)O)C(=O)O)C(=O)NCC(=O)NCC(=O)N[C@@H](CO)C(=O)N[C@@H](CCCCNc1c(NCCCCCN(O)C(=O)CCC(=O)NCCCCCN(O)C(=O)CCC(=O)NCCCCCN(O)C(C)=O)c(=O)c1=O)C(=O)O)C(C)C [zirconium-89 labelled]", "test system": "rat, blood", "conditions": "sc, 3 nmol/kg, 72 h, ex vivo", "quantity": "tissue uptake", "value": "0.04 %ID/g"}
{"note": "For quick reference, copied from above:"}
{"Compound": "CC(C)C[C@H](NC(=O)OCc1ccccc1)C(=O)N[C@H](C=O)C[C@@H]1CCCNC1=O", "tested on": "Genome polyprotein, 3C-like protease (Lordsdale virus, UniProt P54634)", "quantity": "IC50", "value": "3.74 ± 0.42 µM"}
{"Compound": "O=S(=O)(c1ccc(C(F)(F)F)cc1)N1CCNCC1COc1ccc2ccccc2c1 (stereo not drawn)", "tested on": "P2X purinoceptor 4 (P2RX4, Homo sapiens, UniProt Q99571)", "test": "Ca2+ flux, antagonist", "test system": "human cells expressing P2RX4", "conditions": "racemate tested", "quantity": "IC50", "value": "> 10 µM"}
{"Compound": "CN[C@]1(c2ccccc2Cl)CCCCC1=O", "tested on": "Neuronal acetylcholine receptor; alpha3/beta4 (Homo sapiens, UniProt P30926+P32297)", "test": "channel function, antagonist, IonWorks Barracuda", "quantity": "IC50", "value": "5.8 µM"}
